Measurements pooled from the literature.
Every numbered part comes from another study and shows a few of its results, in no order. Changes are numbered by the printed parent chain.

Series 1 — method: RNA Bind-n-Seq; molecule type: RNA; medium: in vitro; tested at: 365 nM; reference: no-protein control; reading: higher = stronger binding; endpoint: RBNS enrichment (R)
Target: RNA binding protein fox-1 homolog 2, RRM domain, GST-SBP tag (RBFOX2, Homo sapiens, UniProt O43251-10, residues 100-194)
Setting: natural RNA segment, single round, ends assumed
Constant ends, left off below: GGGAGUUCUACAGUCCGACGAUC … UGGAAUUCUCGGGUGCCAA
Residues (chain): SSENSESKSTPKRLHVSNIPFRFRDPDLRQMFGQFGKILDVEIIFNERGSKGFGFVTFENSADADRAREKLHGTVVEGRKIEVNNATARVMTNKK
AGGAGGAAGGGACACUCACUCUGGAAGCUCUGCAGCCACUCCGUGCCAGGUGCCUUAACUCUGGGACGUGUACAGACGUCCUCCCUCCUCUUUGGGAACUGUCCUCUUGG: 0.599
UAAAGGCUAUAUUGCUGUAAACUUAAUUGAUAAAGCUCUGUUUAAUUUAGAGUUUUGAAGAAAUAGUCUCCCUUCAAUUAAGAAAUUUUCAUAAUGGAAUGAUUUAAAUU: 0.69
CCGAGUCACACCCGGUGGCUCUGGUAUGAAUUCACCCGAAGCGCUUCUGCACCAACUCACCUGGCCGCUAAGUUGCUGAUGGGUAGUACCUGUACUAAACCACCUCAGAA: 0.233
UGGCUGGCUCUCUGAACAUCAGGAAACCAGGGCCUCCCACCACAAGCCAGCCUCACCAACAACACCAUGUCUGCUCAGCAGUAUGCAGAUAUGUGGGGAUAGUCUCUCAG: 0.503
CAUAUAGAUUAAACAAAAUUUUUAUCUUUUUUCAAGAAUAUAGCUGGCUAUCUUUAAGAAAGAUGAUAUAUCCUAGUUUUGAAAGUAAUUUUCUUUUUUCUUUCUAGCAU: 0.913
AUCUUAGAUUGCCACUGCUUUCAUUGAAGACCCUCAAUGCCAAGAAACGUGUCCCUGGCCCAUAUUAAUCCCUCGUGUGUCCAUAAUUAGGGUCCACGCCCAUGUACCUG: 0.25
CACUCUCGUUCAGGAGGAGGCUUCUCGCCUGAAACAAUUGCACCCAACACUUUUGGGGAAGUCUCAUUUUUGCAUUAGGACAUAUUUUAGGUUAAACAAAAGCAUAUUUU: 0.948
UUUAAGACUUUGUCAUCCGUUCUAGUGUAUAUGCAGAGCCUGUUGUGUGUGUGGACUGGUUAUAGAUUUAUAACUAUGCAGGGUUAAUUAUCCAAUCUUUUUUUUUUGUA: 1.48
UCAAACCUGUGUCUCGCUCUAUAUGCACUUUGUUUACUCUUUAUACAAUAAACAUACUAAAGACUUCCAUGCAUAUGCCUUUUAAUAUUAAGCUUGCAUCUUGAAAAGCA: 17.4
CUCUCUCUGUCUCUCUCUGUCUCUCUCCCACUCCUUCUUUCCCCGAGGCCUUUGCCUGGGUCUGAAGGUCUUGGCCAGAGGAACACCAUCAUCAGUCAAGGGGUCUGGCC: 0.346
AUGGUACCCAGAGUGGGCUGUGGUGGUCUGUGAGGUAACCAAGCCCAUGUCUGGCAGAUGAGGGCUGUUUGCCCUUUUCUGUGCCAAUGAGUGCCCUUUUCUGGCACUCU: 0.268
AUCCAAUUUUCUCUGCUAGGGGUUAUCAUUAGCAAUUGACAUGCUAAAGGUUUUGGAGCCCACCUAGGGGUAGGUGCAGCUUUAUUGGCUUUUCUGUGGAUUCUCUCAGU: 0.755

Series 2 — target: CCNB2, cyclin fold, Cln2 fusion (human); method: yeast growth competition, sequencing; medium: yeast; setting: weak parent motif; reference: not given; reading: higher = stronger binding; endpoint: normalised enrichment score
Parent: DBF4B docking peptide (human); LGYLYLLLTQSLW
LGALYLLLTQSLW [Y3A]: 0.105
LGYLYLLATQSLW [L8A]: 0.592
LGYLYLLLAQSLW [T9A]: 0.598
LAYLYLLLTQSLW [G2A]: -0.0611
LGYLYALLTQSLW [L6A]: 0.16
LGYLYLLLTQALW [S11A]: 0.54
LGYLALLLTQSLW [Y5A]: 0.852

Series 3 — method: universal PBM; molecule type: double-stranded DNA, one strand shown; medium: in vitro; tested at: not given; reading: higher = stronger binding; endpoint: E-score
Target: Sal-like protein 4, full length isoform B (SALL4, Homo sapiens, UniProt Q9UJQ4-2, residues 1-616)
Setting: 8-mer, flanks averaged, mean of replicates
Construct (chain): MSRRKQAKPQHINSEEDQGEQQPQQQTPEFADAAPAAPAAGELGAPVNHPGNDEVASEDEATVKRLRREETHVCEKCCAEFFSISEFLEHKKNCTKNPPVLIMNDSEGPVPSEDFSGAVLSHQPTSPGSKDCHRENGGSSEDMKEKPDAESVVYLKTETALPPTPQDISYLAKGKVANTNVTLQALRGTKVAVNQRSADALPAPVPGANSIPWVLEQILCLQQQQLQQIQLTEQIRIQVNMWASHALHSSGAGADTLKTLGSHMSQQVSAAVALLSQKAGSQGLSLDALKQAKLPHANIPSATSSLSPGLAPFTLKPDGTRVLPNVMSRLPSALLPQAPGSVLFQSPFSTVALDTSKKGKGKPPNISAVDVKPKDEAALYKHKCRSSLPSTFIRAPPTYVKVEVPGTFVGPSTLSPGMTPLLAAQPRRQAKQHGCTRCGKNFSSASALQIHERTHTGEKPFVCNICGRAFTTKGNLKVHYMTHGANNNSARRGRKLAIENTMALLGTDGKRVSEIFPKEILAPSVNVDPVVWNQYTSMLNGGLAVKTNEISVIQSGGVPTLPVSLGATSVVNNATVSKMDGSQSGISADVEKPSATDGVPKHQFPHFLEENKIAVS
ATAGACCA: 0.0792
GGATATCC: 0.118
GCCTAGCC: -0.215
CCGACCTA: -0.118
AGTGTCGG: -0.261
ACTCGGGA: -0.17
GCCCGTAC: -0.163
CATCGGCC: -0.315
GCTTCTCA: -0.123
ATTGTAAA: 0.337
TAGACTAA: -0.0197
CTTATCGC: -0.123
CACTTCAG: -0.00743
GCAATTGA: -0.0621
CAGTACCC: -0.111
GACCAGCC: -0.269
GATGGGCC: -0.344
TGAGTCCA: -0.0291
AGTCGTTC: -0.0832
ACGAAGGA: 0.0389

Series 4 — method: DNA-protein interaction ELISA; molecule type: double-stranded DNA, one strand shown; medium: in vitro, bacterial lysate; tested at: not given; setting: whole dsDNA probe, crude lysate protein; reference: highest signal in screen; reading: higher = stronger binding; endpoint: relative absorbance
Target: Probable WRKY transcription factor 33, C-terminal DNA-binding domain (WRKY33, Arabidopsis thaliana, UniProt Q8S8P5, residues 346-449)
Construct (chain): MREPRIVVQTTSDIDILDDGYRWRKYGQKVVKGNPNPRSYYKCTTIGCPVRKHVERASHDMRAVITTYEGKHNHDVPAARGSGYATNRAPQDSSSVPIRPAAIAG
AAAAAAAATCTTAGCTCTATCTCATCAAAA: 43.8 % of maximum
AAAAAATGCTATCCGTGTCTATGCCAAAAA: 43.2 % of maximum
AAAAAAAGTCTGCGGCTGCAGGGCGGAAAA: 99.3 % of maximum
AAAAAATGCCCTTTTTATCTTTATGTAAAA: 33.9 % of maximum
AAAAAAGTCTGCGTCCTACCCCATTCAAAA: 57.9 % of maximum
AAAAAATTAGACGCTACACTTACGGTAAAA: 38.1 % of maximum
AAAAAATGTATTCGTGTCCACTCCATAAAA: 36.5 % of maximum
AAAAAAAAAAAAAAAAAAAAAAAAAAAAAA: 36.7 % of maximum
AAAAAAAGCTTCTATAGCTCCATGGAAAA: 34.5 % of maximum
AAAAAATAATTACAAGTCGGCTCCACAAAA: 29.7 % of maximum
AAAAAACTAACCGTCGCAGGCGTGTGAAAA: 55.3 % of maximum
AAAAAAACTCTAGGTCAATATTATTCAAAA: 99.8 % of maximum
AAAAAAGCTCATGGCCCTGAGGATCTAAAA: 46.1 % of maximum
AAAAAATTTGCGCTTCATCCTGCCCCAAAA: 34.3 % of maximum

Series 5 — method: RNA Bind-n-Seq; molecule type: RNA; medium: in vitro; tested at: 100 nM; reference: input RNA pool; reading: higher = stronger binding; endpoint: bound/input enrichment
Target: RING finger protein unkempt homolog, zinc fingers 1-6, SBP tag (UNK, Homo sapiens, UniProt Q9C0B0, residues 30-357)
Chain of UniProt Q9C0B0 (30-357, looked up): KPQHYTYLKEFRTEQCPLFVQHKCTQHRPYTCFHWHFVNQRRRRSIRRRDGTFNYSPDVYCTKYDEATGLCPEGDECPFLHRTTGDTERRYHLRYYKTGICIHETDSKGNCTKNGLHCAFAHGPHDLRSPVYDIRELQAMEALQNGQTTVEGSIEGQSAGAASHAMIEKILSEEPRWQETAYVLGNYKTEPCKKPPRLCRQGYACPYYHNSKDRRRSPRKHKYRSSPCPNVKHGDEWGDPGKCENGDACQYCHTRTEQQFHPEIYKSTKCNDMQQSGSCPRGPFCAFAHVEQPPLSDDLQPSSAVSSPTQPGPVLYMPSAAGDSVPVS
Setting: RNA with constant flanks, vertebrate orthologous sites, ends assumed
Constant ends, left off below: GGGAGUUCUACAGUCCGACGAUC … CAACAGAGGAUUGAGCAUCA
AGUUUGUAUGUACAUUAUUCACACUCCUCUCUGUUGUGUUUGGGGGAAAAAAAAGACAUUUUAGCCUUUUUUAAGGUUAUUUAAUUUCAUGUUAUUUGGUUGCAUGAAGUUGCCCUUAAC: 0.479 ratio
UCCUCAACGUGUUCUAGCUUGUGAUCCUUCAAAGAUGGGUUAUGUGUUAAUGAUAGGUACUAGAAAUGUUUACUUCUCUCUUUCCACUGAUCAGAGAAACAGGCAUUAAAGACAGAAUGC: 0.457 ratio
UUCAUAAUCACGCUAAUCGUAAUCUGGAGACGUGUAACAUUGUGUAGCCUUUUGUAUAAAUAGACAGAUAGAAAUGGUCCGAUUAGUUUCCUUUUUAAUAUGCUUAAAAUAAGCAGGUGG: 1.92 ratio
UUUAAUUAUGAAAAUAUAAAGGAUUUUUAAUGUUUAAUUUCCCCUGGCAUAUUAAGACAUCUUUUUUUCCAGGCAGAUCACUCAGUGUGUGAGUGUGUGUACACAUGUUACAAAGACAAC: 0.0618 ratio
CUACACCAGAUAUUUUAACUGUUUUAAAGUUACAAACAAGCUUUGCUUUUUGCAUUUAAAUAGAAUACUUUUAUAUUUUAAGUGCUUCAGAUGUGUGGAGAUGUUAGUUUGCUCUUAUAA: 0.574 ratio
AUCCUCAACUUGUUCUAGCUUGUGAUCCUUCAAAGUUGGGUCGGCAUUCGUGCCAGGUACUAGAAAAUUUCAUUUCUCUAUUGCCACUGAUCAGAGAGACAGACGUUAAAAACAGGAACA: 0.593 ratio
CUCCCUGUUAUCUCUAAAAUACAACUUUUUAAAAUCGUGUUGCUACCACUUCUAAAAAUGCAGCAAUAUUCAAAUAAAACACUAAUGAUAUGAGAAAUGUUGCAUAUUGUUUCGCAAGCC: 0.348 ratio
UUCAGGCACAACUGACUGGUUCACAGCAUUCCUUACCUAGUUACUUUUCAAAUGCAAGUGUAGCUGAUUUUCAGGACACAACCAGGCAGCCAUCUUUAUCUUGUAAUCCAGUUGGAGAUU: 2.32 ratio
AGGGAUGGCCCCCAAUCCCACCUCUGUUUAUUCUGUAAACUACAACCUAUAAAUAACCUUUAGCAUUCCUAUUGUAACAAAAUUAAUUUUUAUGAAAUAAAUUAUAUUUCCUAGUCUAAU: 0.915 ratio
CUGAAGCUUUGUGUUUGGCUGCACCUGCAUAAGCUGCUACAAAUAGAAUAAAGAAUCUCAUAGCCUGUAUCUAUCAUUUAGAUGCAUGGAAAAAUGGGCUUUGCACACAAUGGGUUUGGA: 1.43 ratio
CCCUCUGAACCCCAUAUCUUCUGUUUCAUAGUGCAGAAGUAUUCUUUUCAAUUGCAUUAUUGGUGGACUUGUUUUAAUUUUGGAGAAACUUUCAGUACAGAUACUGUGAGCUUACAUGGA: 0.912 ratio

Series 6 — method: protein binding microarray; molecule type: double-stranded DNA, one strand shown; medium: in vitro; tested at: not given; reference: not given; reading: higher = stronger binding; endpoint: E-score
Target: Histone acetyltransferase KAT6A, winged helix 2, GST fusion (KAT6A, Homo sapiens, UniProt Q92794, residues 85-181)
Setting: 8-mer, flanks averaged, mean of 2 arrays, mostly near background
Residues (chain): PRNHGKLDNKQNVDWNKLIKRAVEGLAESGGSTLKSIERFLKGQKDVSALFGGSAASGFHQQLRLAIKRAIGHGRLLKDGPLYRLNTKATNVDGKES
ACGTATCG: -0.107
AGCGCTCC: 0.0588
CCGCCTCG: 0.282
AAAACGTG: -0.24
GAGCTTGC: 0.016
CACCACGC: 0.0274
ATGTCGCA: 0.0559
CGGGTTCA: 0.142
CCTTCCAA: -0.107
CCCATAGA: -0.257
ACATCGTC: -0.164
AAAAAGAT: 0.131
GTACTTCA: 0.0828
GATATACA: -0.158
AGGCCGAG: 0.0517
GTTAGCGA: 0.0339
AACCGTAA: -0.226
AGATCGCA: 0.0598
AGTACTCA: -0.0768
AGCCGCAT: 0.131
GACGGAGA: 0.0254
CCTGTGAG: -0.00328
CCTTAGCG: 0.0149
AGGATCGA: -0.112
GAAATCAC: 0.181

Some of these lines once more (series 3):
AGTCGTTC: -0.0832
TGAGTCCA: -0.0291
GACCAGCC: -0.269
GCCTAGCC: -0.215
TAGACTAA: -0.0197
CCGACCTA: -0.118
ACGAAGGA: 0.0389
CAGTACCC: -0.111
GATGGGCC: -0.344
